Experimental data pooled from the literature.
Protocols differ between the studies behind these lines.
KCNH2: Voltage-gated inwardly rectifying potassium channel KCNH2 (KCNH2, Homo sapiens, UniProt Q12809)
Sequence of UniProt Q12809 (whole entry, looked up): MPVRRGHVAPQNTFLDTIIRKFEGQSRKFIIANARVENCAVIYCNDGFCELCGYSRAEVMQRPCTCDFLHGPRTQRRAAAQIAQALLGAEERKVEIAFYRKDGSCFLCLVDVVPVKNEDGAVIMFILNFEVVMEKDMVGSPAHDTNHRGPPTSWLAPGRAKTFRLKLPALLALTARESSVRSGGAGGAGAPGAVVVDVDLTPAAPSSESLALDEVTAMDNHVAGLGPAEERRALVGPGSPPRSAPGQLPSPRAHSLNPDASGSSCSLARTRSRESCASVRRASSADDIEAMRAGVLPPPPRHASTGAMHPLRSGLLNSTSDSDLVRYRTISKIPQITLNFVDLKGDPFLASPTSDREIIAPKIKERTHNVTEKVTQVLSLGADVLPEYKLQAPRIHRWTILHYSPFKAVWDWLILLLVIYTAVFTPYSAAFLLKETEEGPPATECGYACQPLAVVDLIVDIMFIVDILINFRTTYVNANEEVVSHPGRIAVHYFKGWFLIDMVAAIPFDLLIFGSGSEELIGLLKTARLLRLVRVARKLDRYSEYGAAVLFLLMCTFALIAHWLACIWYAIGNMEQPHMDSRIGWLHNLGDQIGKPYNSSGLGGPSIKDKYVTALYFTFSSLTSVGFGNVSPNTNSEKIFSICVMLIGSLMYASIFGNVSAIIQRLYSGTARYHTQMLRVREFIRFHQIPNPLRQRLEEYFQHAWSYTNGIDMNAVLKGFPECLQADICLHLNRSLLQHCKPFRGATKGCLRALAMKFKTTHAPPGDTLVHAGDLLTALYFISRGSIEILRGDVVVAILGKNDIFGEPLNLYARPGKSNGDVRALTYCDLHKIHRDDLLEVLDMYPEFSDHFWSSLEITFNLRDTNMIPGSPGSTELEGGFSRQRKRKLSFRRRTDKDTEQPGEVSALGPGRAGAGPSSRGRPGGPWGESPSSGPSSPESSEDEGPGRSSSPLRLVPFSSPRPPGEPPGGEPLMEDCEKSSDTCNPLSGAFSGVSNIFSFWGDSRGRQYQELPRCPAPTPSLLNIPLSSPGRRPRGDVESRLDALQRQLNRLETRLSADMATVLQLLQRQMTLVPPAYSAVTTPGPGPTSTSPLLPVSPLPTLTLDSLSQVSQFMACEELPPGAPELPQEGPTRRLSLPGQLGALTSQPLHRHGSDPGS
Sequence of UniProt O94788 (whole entry, looked up): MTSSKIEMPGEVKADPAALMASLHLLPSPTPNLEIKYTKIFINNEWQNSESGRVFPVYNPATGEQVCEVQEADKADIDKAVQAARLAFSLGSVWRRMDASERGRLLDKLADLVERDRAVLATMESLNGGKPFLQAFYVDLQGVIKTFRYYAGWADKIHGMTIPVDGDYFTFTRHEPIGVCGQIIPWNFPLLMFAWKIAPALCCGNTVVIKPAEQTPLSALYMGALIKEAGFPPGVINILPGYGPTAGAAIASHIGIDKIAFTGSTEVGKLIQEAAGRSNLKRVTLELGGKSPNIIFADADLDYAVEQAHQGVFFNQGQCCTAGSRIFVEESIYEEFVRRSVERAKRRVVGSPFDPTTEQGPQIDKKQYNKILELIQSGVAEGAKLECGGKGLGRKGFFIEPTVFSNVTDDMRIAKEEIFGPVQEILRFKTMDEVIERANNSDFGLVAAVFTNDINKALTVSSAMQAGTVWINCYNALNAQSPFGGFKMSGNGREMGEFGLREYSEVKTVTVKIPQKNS

SMILES | target or system | test | test system | setting | endpoint | result
CC(=O)OC[C@@]1(C)[C@H]2CC[C@@H]3CN(Cc4ccc([N+](=O)[O-])cc4)[C@@H](C4=CCOC4=O)C[C@H]3[C@]2(C)CC[C@H]1OC(C)=O | MRC5 | cell growth or viability, ATP luminescence | – | 25 µM, 72 h | cell death | -1.7%
COc1cccc(OC)c1-c1cc(C(=O)NC2(C(=O)O)C3CC4CC(C3)CC2C4)nn1-c1ccc(C(=O)N(C)CCCN(C)CCCN(C)C(=O)CN2CCN(CC(=O)[O-])CCN(CC(=O)[O-])CCN(CC(=O)[O-])CC2)cc1C(C)C.[177Lu+3] (centres unmarked) | HT-29 tumour model | – | host not given, bone | 7 days, tumour-bearing | tracer uptake | 0.6 %ID/g
O=C(c1ccc(F)cc1)C1CCN(CCn2c(=O)[nH]c3ccccc3c2=O)CC1 | – | metabolic stability, mass spectrometry | human, liver microsomes | 15 min | compound remaining | 66.5%
CNCCN1CCN(c2cnc3c(cc(C(=O)NCc4ccc(Cl)cc4)c(=O)n3CC(=O)N3CC(C)(F)C3)n2)C1=O | KCNH2 | ion current, inhibitor | – | 40 µM | inhibition | 42.2%
NCc1cc2c(cc1F)C(=O)N(C1CCC(=O)NC1=O)C2 (centres unmarked) | – | – | male cynomolgus monkey, plasma | oral, 0.3 mg/kg, 3 h | concentration | 1.4 ng/mL
COc1cccc(-c2n[nH]c(SCc3ccccn3)n2)c1OC | – | – | female Sprague-Dawley rat, plasma | oral, 100 mg/kg, 4 h, single dose | concentration | 10200 ng/mL
CCN1CCN(Cc2ccc(NC(=O)c3ccc(C)c(NC(=O)c4cncc(-c5cccs5)c4)c3)cc2C(F)(F)F)CC1 | – | – | mouse, plasma | intraperitoneal, 15 mg/kg, single dose | CL/F | 143 mL/min/kg
CC1(F)CN(C(=O)Cn2c(=O)c(C(=O)NCc3ccc(Cl)cc3)cc3nc(N4CCCC4=O)cnc32)C1 | KCNH2 | ion current, inhibitor | – | 40 µM | inhibition | 44.8%
N#C[C@@]12C[C@@H]1[C@@H](n1cnc3c(N[C@@H](C4CCC4)C4CC4)nc(I)nc31)[C@H](O)[C@@H]2O | – | – | male Wistar rat, plasma | oral, 10 mg/kg | bioavailability | 13.1%
O=C1CC[C@H](N2Cc3cc(N4CCN(CC5CCN(c6ccc([C@@H]7c8ccc(O)cc8CC[C@@H]7c7ccccc7)cc6)CC5)CC4)ccc3C2=O)C(=O)N1 | – | – | male Sprague-Dawley rat, plasma | oral, 20 mg/kg, fed | AUC(0-t) | 9780 ng·h/mL
CC(=O)OC[C@@]1(C)[C@H]2CC[C@@H]3CN(Cc4ccc(F)cc4)[C@@H](C4=CCOC4=O)C[C@H]3[C@]2(C)CC[C@H]1OC(C)=O | MRC5 | cell growth or viability, ATP luminescence | – | 25 µM, 72 h | cell death | 7.1%
O=C(CCCCCCC(=O)Nc1ccc(CC[18F])cc1)NO | LNCaP tumour model | – | male nude, tumour | intravenous, 1 h, tumour-bearing | tracer uptake | 1.9 %ID/g
COc1cccc2c(N3CCC(CCP(=O)(O)O)CC3)ncnc12 | EMT6 tumour model | – | female BALB/c, tumour | subcutaneous, 50 mg/kg, tumour-bearing | Cmax | 9000 ng/g
OC[C@H]1O[C@@H](Oc2ccc(O)c3cccc(O)c23)[C@H](O)[C@@H](O)[C@@H]1O | ALDH1A2 (Homo sapiens, UniProt O94788) | enzyme activity, inhibitor, fluorescence | – | – | IC50 | < 10 µM
COc1cccc(OC)c1-c1cc(C(=O)NC2(C(=O)O)C3CC4CC(C3)CC2C4)nn1-c1ccc(C(=O)N(C)CCCN(C)CCCN(C)C(=O)CN2CCN(CC(=O)[O-])CCN(CC(=O)[O-])CCN(CC(=O)[O-])CC2)cc1C(C)C.[177Lu+3] (centres unmarked) | HT-29 tumour model | – | host not given, stomach | intravenous, 4 h, tumour-bearing | tracer uptake | 1.5 %ID/g
CC1(C)OC[C@@]2(C)[C@H]3CC[C@@H]4CN(Cc5ccccc5)[C@@H](C5=CCOC5=O)C[C@H]4[C@]3(C)CC[C@H]2O1 | MRC5 | cell growth or viability, ATP luminescence | – | 25 µM, 72 h | cell death | 1.3%
Nc1ccn([C@@H]2O[C@H](CO)[C@@H](O)C2(F)F)c(=O)n1 | MDA-MB-231 | cell growth or viability, MTT | – | 0.078125 µg/mL, 48 h | viability | 90.3%
